Experimental data of several laboratories.
Numbered parts are unrelated; each lists some results of a single study. Substitutions count along the parent as printed.

Block 1
Target: CCNE2, cyclin fold, Cln2 fusion (human)
Technique: yeast growth competition, sequencing
Sample: yeast
Notes: strong parent motif
Relative to: not given
Direction: higher = stronger binding
Parent: viral docking peptide; KGVKRKLFAEDSS
For `D11G`, “normalised enrichment score” read 6.5.
`S12K`: “normalised enrichment score” 6.28.
For `S12M`, “normalised enrichment score” read 6.56.
Under “normalised enrichment score”, `V3R` is recorded as 0.432.
`R5A`: “normalised enrichment score” 0.865.

Block 2
Target: ATP-dependent RNA helicase DDX3X, helicase core (DDX3X, Homo sapiens, UniProt O00571, residues 132-607)
Chain of UniProt O00571 (132-607, looked up): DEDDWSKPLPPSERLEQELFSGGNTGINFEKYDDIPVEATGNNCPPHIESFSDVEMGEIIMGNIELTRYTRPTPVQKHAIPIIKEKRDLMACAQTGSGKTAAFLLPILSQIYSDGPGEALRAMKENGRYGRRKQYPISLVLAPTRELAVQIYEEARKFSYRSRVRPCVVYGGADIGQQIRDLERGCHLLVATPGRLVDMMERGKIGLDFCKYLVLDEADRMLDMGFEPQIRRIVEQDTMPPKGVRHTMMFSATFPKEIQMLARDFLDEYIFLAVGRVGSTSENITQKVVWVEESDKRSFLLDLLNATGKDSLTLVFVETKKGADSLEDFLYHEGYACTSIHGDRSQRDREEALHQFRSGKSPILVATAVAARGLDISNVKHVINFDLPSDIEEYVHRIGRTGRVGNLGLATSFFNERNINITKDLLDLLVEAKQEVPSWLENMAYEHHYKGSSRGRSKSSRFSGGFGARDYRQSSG
Technique: RNA Bind-n-Seq
Form: RNA
Sample: in vitro
Concentration: 90 pmol
Notes: 4-mer, random 30-nt RNA, single round
Added: 3 µM DMDA-PatA, 2 mM ADP, 2 mM phosphate
Relative to: input library
Direction: higher = stronger binding
The 4-mer enrichment of `AACG` is reported as 0.951 fold.
`UUCG` has a 4-mer enrichment of 0.895 fold.
With `CUCA` the 4-mer enrichment was 0.909 fold.
For `AAUC`, the 4-mer enrichment was 0.929 fold.
`UUGG` has a 4-mer enrichment of 1 fold.
`GUAC` has a 4-mer enrichment of 0.889 fold.
With `GUAG` the 4-mer enrichment was 1.09 fold.
The 4-mer enrichment of `UACC` is reported as 0.917 fold.

Block 3
Target: Hepatocyte nuclear factor 3-alpha (Foxa1, Mus musculus, UniProt P35582, residues 1-468, full length assumed)
Technique: EMSA with sequencing
Form: double-stranded DNA, one strand shown
Sample: in vitro
Concentration: 10 and 20 nM
Notes: whole designed probe, mean of two concentrations, ends assumed
Relative to: negative control set to 0
Direction: higher = stronger binding
Shared flanks, not repeated: GTGAGCGGTGCCCATTGATGGGGAAC … TTTCACTGGGATCGTGGGGAC
Target sequence (chain): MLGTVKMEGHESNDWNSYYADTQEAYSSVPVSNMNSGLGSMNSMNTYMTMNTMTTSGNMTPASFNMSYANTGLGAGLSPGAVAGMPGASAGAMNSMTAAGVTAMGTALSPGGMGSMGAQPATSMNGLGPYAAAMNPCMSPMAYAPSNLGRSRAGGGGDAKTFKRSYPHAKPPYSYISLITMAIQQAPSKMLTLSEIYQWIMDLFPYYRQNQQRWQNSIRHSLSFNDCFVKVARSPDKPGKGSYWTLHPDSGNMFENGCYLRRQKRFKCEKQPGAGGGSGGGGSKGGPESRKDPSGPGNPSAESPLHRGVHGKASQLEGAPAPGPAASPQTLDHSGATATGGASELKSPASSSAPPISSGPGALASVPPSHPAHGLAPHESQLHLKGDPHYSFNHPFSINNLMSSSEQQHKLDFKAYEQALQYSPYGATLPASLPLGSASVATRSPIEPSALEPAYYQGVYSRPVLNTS
`ATCTTCCCCCTCTTCCTTGCCCCACCAGCTCACCTTCCCGGGTTGTTTACTTTGAGCAAAGTAAACAAAGCCGGCATTCGTTAACCCTCTTCACGCGCATACTGCTGTTTGCTCTGGATCTAACATGGTCCTTTGGCGACGCCAGGCTCCGGGAGAGCAAAGCACCGTGTCAGGGCCATGATCCGGGGTGGCC`: “normalised bound fraction” 0.535 ratio.
`TAGCCCCTAAAATACTCCTCCTTTACGCCAAAAGATTCTCTTTTCAGCTGTGTTTAAAGTGAAACAATTTTTTATTACGAAAAATTTTGAAAATGTAATCTTGCAAAAAAGATAAGCAAGACTGCTATAATCTAGAGCAAACCAATCTCAATATTTTGATGCATAGCCTTCTAAAATTTTTCTCTTTCTATAT` — result for “normalised bound fraction”: -0.0186 ratio.
Under “normalised bound fraction”, `GAGGGGACGCCCTGGAGCTCAGGTGCTCAAGGGCGTGCGCGGGGCTCGGCCGCCGGTGTCCCTGGAGATGCTTCTCTGGTCTGGTGTGACACGTGTGTACACAGTCCCCGCCCTCTGGTCAGCGCCCGGGTGCGTGTGCTCCCTCCCGACCACCCTGAGGAGCGAGGGTGCTGGTCCCCGAGAGGGCGGCGAG` is recorded as 0.159 ratio.
Under “normalised bound fraction”, `CCAGGGACAATGTGCAGTTGTTGGTCCTGGGTCTTTGACAGACTCCAGGTCAAAGGCAAGACACGGTCAGAAGGGAAAGGATCAAGTCTGTGAGCAAACACCATCAGCCTTGCAATTTGATGGTGGCCTCAAGGAGACATTGGGCGTGTGTTTAAACAAGCAAGGAAGGCAGCTGTACAAGTGCCCTAATCTG` is recorded as 0.24 ratio.
For `CAAGTTTGTGGTCCAGGAGCAACAGGTTATGCCATACAGCCTAGGTGTGTAGTAGGCTACACCCATGACTCATTTGTGTTGTACACTCTACAATGTTTGCACAATGATGAAATCCCATGTCACATTTCTCAGAACATACCCCTGTTGTTAAGCGATACATGACTGTACTTTTTTTAAAAAGTCCAAGGATATA`, “normalised bound fraction” read 0.429 ratio.
Under “normalised bound fraction”, `ATATGACAAAAGGCATGCATGTGACTTTATTTTTTCAATGGCTACTTTTCTTCTTAAATCAGGCTCCCTGATTTTAACTAAAAAATAAATAAGTAAACAAGAAAACACTGGGTTACTCTCAAAGAGATCACATTTTTAAAAACTCAAATGATTTCCTACAGGCAGTCTGTTTTGCAGTGTATTTTTTTTTCTT` is recorded as 0.381 ratio.
Under “normalised bound fraction”, `GAATCTACAGACTGGTGATTGTAAAGATTGTTCTAGCTTTTACTATTCTATACAGTGTTCTAAATATGGAGTAGGAAGAGATTTATTGGACAATGTAAACATATAGTCTGAAACTAAGGCTGTAATACTCATACTGTTTATAGCTGCCAACAATTTCTTCCAACAAAAGGGTTAGTAAAATTTGGTCAATAGT` is recorded as 0.404 ratio.
`GATATTTCGCATGCGCAATTCACAATAAGGTTCATACTCCTATGAGAATCTAATGCTGCCTCTGATCTGACAGGAGGCAGCTCAGGCAGTAGTGTAAACAATGGGGAGTGGCTGTAAATACAGATGAAGCTTTGCTCTCTCACTGCCAACTCACCTTCTGGTGTGCAGCCTGGTTCCTAACAGGCCACAGACA`: “normalised bound fraction” 0.424 ratio.

Block 4
Target: UBE2D2 UBC core domain (UniProt P62837)
Chain of UniProt P62837 (whole entry, looked up): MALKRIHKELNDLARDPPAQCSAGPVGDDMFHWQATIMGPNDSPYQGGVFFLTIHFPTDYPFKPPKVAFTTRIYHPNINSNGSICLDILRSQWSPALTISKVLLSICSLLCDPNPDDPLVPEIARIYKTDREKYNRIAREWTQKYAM
Technique: yeast two-hybrid
Sample: yeast
Notes: mostly zero background
Relative to: not given
Direction: higher = stronger interaction
B1: RBCK1 RING domain (UniProt Q9BYM8); chain SLVLNTEPAECPVCYSVLAPGEAVVLRECLHTFCRECLQGTIRNSQEAEVSCPFIDNTYSCSGKLLEREIK
B2: MAP3K1 RING domain (UniProt Q13233); chain NSIKDEEEQMCPICLLGMLDEESLTVCEDGCRNKLHHHCMSIWAEECRRNREPLICPLCRSKWRSHDFYS
B3: RNF121 RING domain (UniProt Q9H920); chain MPTKHLSDSVCAVCGQQIFVDVSEEGIIENTYRLSCNHVFHEFCIRGWCIVGKKQTCPYCKEKVDLKRMFS
B4: SYTL4 RING domain (UniProt Q96C24); chain RGSQHYSDRTCARCQESLGRLSPKTNTCRGCNHLVCRDCRIQESNGTWRCKVCAKEIELKKAT
B5: SH3RF1 RING domain (UniProt Q7Z6J0); chain DESALLDLLECPVCLERLDASAKVLPCQHTFCKRCLLGIVGSRNELRCPECRTLVGSGVEEL
B6: UBOX5 RING domain (UniProt O94941); chain EQPGSILGPECASCKRVFSPYFKKEPVYQLPCGHLLCRPCLGEKQRSLPMTCTACQRPVASQDVLR
`B1 (RBCK1 RING domain)`: “lacZ reporter activity” 0.
`B2 (MAP3K1 RING domain)`: “lacZ reporter activity” 13700.
For `YQNEVDDDLVCHICLQPLLQPLDTPCGHTFCYKCLRNFLQEKDFCPLDRKRLHFKLCKK (LNX2 RING domain (UniProt Q8N448))`, “lacZ reporter activity” read 0.
`B3 (RNF121 RING domain)`: “lacZ reporter activity” 0.
`FDGDVDPDLKCALCHKVLEDPLTTPCGHVFCAGCVLPWVVQEGSCPARCRGRLSAKELN (PDZRN3 RING domain (UniProt Q9UPQ7))` — result for “lacZ reporter activity”: 0.
Under “lacZ reporter activity”, `B4 (SYTL4 RING domain)` is recorded as 0.
For `B5 (SH3RF1 RING domain)`, “lacZ reporter activity” read 0.
For `AVPSGLEENLCKICMDSPIDCVLLECGHMVTCTKCGKRMNECPICRQYVIRAVHVF (RFFL RING domain (UniProt Q8WZ73))`, “lacZ reporter activity” read 0.
Under “lacZ reporter activity”, `PEDRESLKSACVVCLSSFKSCVFLECGHVCSCTECYRALPEPKKCPICRQAITRVIPLY (MUL1 RING domain (UniProt Q969V5))` is recorded as 12300.
`GSDDEEIPFKCFICRQSFQNPVVTKCRHYFCESCALQHFRTTPRCYVCDQQTNGVFNPA (RNF113A RING domain (UniProt O15541))`: “lacZ reporter activity” 0.
`KETIKKTTKPCPRCHVPVEKNGGCMHMKCPQPQCRLEWCWNCGCEWNRVCMG (PRKN RING domain (UniProt O60260))` — result for “lacZ reporter activity”: 0.
`AMYLQENGIDCPKCKFSYALARGGCMHFHCTQCRHQFCSGCYNAFYAKNKC (RNF31 RING domain (UniProt Q96EP0))` — result for “lacZ reporter activity”: 0.
`NLSELTPYILCSICKGYLIDATTITECLHTFCKSCIVRHFYYSNRCPKCNIVVHQTQPLY (PCGF6 RING domain (UniProt Q9BYE7))` — result for “lacZ reporter activity”: 0.
For `B6 (UBOX5 RING domain)`, “lacZ reporter activity” read 0.

Some of these lines once more (block 4):
Under “lacZ reporter activity”, `B4 (SYTL4 RING domain)` is recorded as 0.
For `B5 (SH3RF1 RING domain)`, “lacZ reporter activity” read 0.
For `AVPSGLEENLCKICMDSPIDCVLLECGHMVTCTKCGKRMNECPICRQYVIRAVHVF (RFFL RING domain (UniProt Q8WZ73))`, “lacZ reporter activity” read 0.
Under “lacZ reporter activity”, `PEDRESLKSACVVCLSSFKSCVFLECGHVCSCTECYRALPEPKKCPICRQAITRVIPLY (MUL1 RING domain (UniProt Q969V5))` is recorded as 12300.
